Assay results gathered from unrelated publications.
A part holds a random share of what one study measured. Changes are numbered by the printed parent chain.

Series 1
Target: CCNB2, cyclin fold, Cln2 fusion (human)
Method: yeast growth competition, sequencing
Medium: yeast
Notes: weak parent motif
Relative to: not given
Direction: higher = stronger binding
Parent: SAMHD1 docking peptide (human); ASKSRVQLFKDDP; partner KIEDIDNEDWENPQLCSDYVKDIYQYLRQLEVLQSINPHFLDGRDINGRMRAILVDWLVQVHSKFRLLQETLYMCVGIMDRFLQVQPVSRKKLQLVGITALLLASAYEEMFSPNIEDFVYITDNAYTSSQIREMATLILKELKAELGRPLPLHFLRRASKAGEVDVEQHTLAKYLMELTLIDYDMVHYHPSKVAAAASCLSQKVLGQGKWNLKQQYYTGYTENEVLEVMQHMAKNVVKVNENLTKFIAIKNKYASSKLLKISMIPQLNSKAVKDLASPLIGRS
Variant | normalised enrichment score
L8T | 0.363
K3N | -0.102
D11G | 0.401
S4T | 0.39
D11T | 0.438
K10L | -0.142
V6A | 0.515
R5I | 0.0956
L8M | 0.194
V6N | -0.012
S4F | 0.79
R5A | -0.000611
K10G | -0.038
D11W | -0.0308
Q7H | 0.548
K3R | 0.486
K3S | 0.0394
D11F | 0.227
L8R | 0.314
D11M | 0.368
D12G | 0.22
S4Q | 0.468
Q7E | -0.269
K10M | 0.181
V6C | -0.0743

Series 2
Target: Histone acetyltransferase KAT6A, both winged helices, GST fusion (KAT6A, Homo sapiens, UniProt Q92794, residues 1-181)
Method: protein binding microarray
Form: double-stranded DNA, one strand shown
Medium: in vitro
Tested at: not given
Notes: 8-mer, flanks averaged, mean of 2 arrays, mostly near background
Relative to: not given
Direction: higher = stronger binding
Construct (chain): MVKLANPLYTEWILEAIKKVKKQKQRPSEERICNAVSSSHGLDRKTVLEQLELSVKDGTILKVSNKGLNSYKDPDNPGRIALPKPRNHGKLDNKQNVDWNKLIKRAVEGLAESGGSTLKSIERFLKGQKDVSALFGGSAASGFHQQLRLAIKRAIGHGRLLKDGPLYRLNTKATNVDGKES
Strand | E-score
ATCAGGGC | -0.102
ATCAAGCC | 0.0167
CTCGTCAA | -0.0372
CACCTGTA | -0.146
GCATCACC | -0.0728
ACCCCTTC | -0.133
CCCCAGGA | -0.228
GCACCCGC | 0.263
TTGATCAA | 0.0471
ATTCAAGA | -0.0968
CTTGAGGC | -0.0082
CACCCACG | 0.083
ACCGGCGA | 0.181
GCTCTCAA | -0.0343
GTCACGCA | 0.0713
ACTTTGTC | -0.202
CACTCACA | -0.0511
GTGTTATA | -0.0657

Series 3
Target: RNA binding protein fox-1 homolog 2, RRM domain, GST-SBP tag (RBFOX2, Homo sapiens, UniProt O43251-10, residues 100-194)
Method: RNA Bind-n-Seq
Form: RNA
Medium: in vitro
Tested at: 365 nM
Notes: natural RNA segment, single round, ends assumed
Relative to: no-protein control
Direction: higher = stronger binding
Residues (chain): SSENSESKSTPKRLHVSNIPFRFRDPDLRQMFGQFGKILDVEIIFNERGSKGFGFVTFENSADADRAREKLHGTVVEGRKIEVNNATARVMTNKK
Strand | RBNS enrichment (R)
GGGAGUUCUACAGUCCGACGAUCCCCAUCUCCUCAACCACCAGGGUCUGAGUUCUAGCAGGGUCCUGGGGGUAUCCCACUGCUAUACUGUUCUACUGCUUCCCUCAGUAUCUGAAUGUCUCAAUUUAAAACUUUGGAAUUCUCGGGUGCCAA | 0.711
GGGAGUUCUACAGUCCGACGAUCUCACUGUUAACCCUGAGAGCACAUAAUCUGAUGCAUGUGUGACUAAGAAUAAGCCUAUGGUCAUGGGCAAGAAGGGCCAACAUAGACACUUGGGUAGAAAUACAGUCUGAUGGAAUUCUCGGGUGCCAA | 4.35
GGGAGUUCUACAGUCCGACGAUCUUCACAUCAACAGAGCGAGGCUGUGAUAACUUAGGAGGCAGCAAUCCUAAUAGUCCUUCAGUGCAUUUUAGUCUGUCUCCAACUGGACACCAGUAGGUAGUGUCAAGCCAUGGAAUUCUCGGGUGCCAA | 0.553
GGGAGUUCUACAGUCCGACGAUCAACAUCACGAUCAAAGCAGCAGGUGCUGUGGUCUCUCAAAAUUGAUUUUUAUUUGACUCUGUGGCUCUAAGACUGCCUUGAACCGCCUGAGGCCUAUGCAUCUGAACAAGUGGAAUUCUCGGGUGCCAA | 2.02
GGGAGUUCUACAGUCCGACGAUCACAGUAUCUGGUUUUUAAAAUAUUUGCUAUGUAGUAAUGGGCAUUUUAAGAUAUAGUUAAGAUAUAAAAGAAUGGCAGAAUGCGAUUGAUUCCUUCCUGUCGAGUUAAAUUGGAAUUCUCGGGUGCCAA | 0.419
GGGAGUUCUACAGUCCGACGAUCCAAUUGGAAGAGCAUAUGAACACGGGCCAGCUAGCAGGAUUUUCACAUCAAGUUAGAAGUCUGAUUUUGAAUAAUAUCAUCAAUAAGAAGGAGUUUGGGAUUUUGGCAAAUGGAAUUCUCGGGUGCCAA | 0.673
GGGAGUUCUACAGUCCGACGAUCUUAUAAUCUGAGAGAGUUAAUCUCAGAGGAUGCUUUUUUCCUUUUAAUCUGCUAUGAAUCAGUACCCAGAUGUUUAAUUACUGUACUUAUUAAAUCAUGAGGGCAAAAGAUGGAAUUCUCGGGUGCCAA | 0.643
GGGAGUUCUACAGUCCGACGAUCAGAUUGCCCGGUCCACGAGGGAAAUGCCCAGUGCCCUCAGCAUCCUUCUCCUUGGCGUGGCUUACUUCAAGGGGCAGUGGGUAACCAAGUUUGACUCGAGAAAGACGACCUGGAAUUCUCGGGUGCCAA | 0.982
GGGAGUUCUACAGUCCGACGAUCGUUGGGCCUAAAUAAAUGAGCUGUUGGAAGAAAAGAAUCACAGUACUUUCCAGCAGUCAGUCCCUGGUUCCUAGAUGUGUUCUAAGCAAUGCAAAUGUCUAAUUGUCCCCUGGAAUUCUCGGGUGCCAA | 0.503
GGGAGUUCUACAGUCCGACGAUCUCUGCUCCCGCUCUUGCUUCAGAGUCGGCACACUCACCUGCAUUUGAGUUCUGUCUAUAGCCCAGCAGGCUGCCUGUUUAAAAUCCCAUCAUGAAUUUAACAGGCUGAUGUGGAAUUCUCGGGUGCCAA | 0.573
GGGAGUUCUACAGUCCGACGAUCCUGAAGCAAACAGUGUCCCUUCUGGCUGUGUUGGAGCCUCCCCAGUAACCACCUAUUUAUUUUACCUCUUUCCCAAACCUGGAGCAUUUAUGCCUAGGCUUGUCAAGAAUUGGAAUUCUCGGGUGCCAA | 0.194
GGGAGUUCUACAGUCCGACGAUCACAGGGCAUAUCUUUGUUAAAGUAGAUUUUUCAAUGUUUUACAGAAUUACAUUUUCAAAAAAAGGUUUUUAUAAUGAAGUUGUUUAUUAAAAACUUCUGAAUGAUGUGUUUGGAAUUCUCGGGUGCCAA | 1.69

Series 4
Target: Centromere-binding protein 1, full length, N-terminal tag (CBF1, Saccharomyces cerevisiae, UniProt P17106, residues 1-351)
Chain of UniProt P17106 (whole entry, looked up): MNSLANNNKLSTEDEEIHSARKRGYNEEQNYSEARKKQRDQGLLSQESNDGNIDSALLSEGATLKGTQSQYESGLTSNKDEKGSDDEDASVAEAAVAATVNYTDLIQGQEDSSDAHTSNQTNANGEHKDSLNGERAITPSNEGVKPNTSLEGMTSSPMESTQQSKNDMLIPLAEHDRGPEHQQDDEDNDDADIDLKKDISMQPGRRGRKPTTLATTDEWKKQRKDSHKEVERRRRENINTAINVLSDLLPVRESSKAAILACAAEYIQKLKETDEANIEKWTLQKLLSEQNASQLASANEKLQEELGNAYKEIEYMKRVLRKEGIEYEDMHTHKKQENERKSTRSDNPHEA
Method: protein-binding microarray
Form: double-stranded DNA, one strand shown
Medium: in vitro
Tested at: 0.8 µM
Notes: whole 60-bp probe, no competitor
Direction: higher = stronger binding
Strand | fluorescence intensity
CCTAACTACTATAGGCACGTGCGATAGCTTCGTACAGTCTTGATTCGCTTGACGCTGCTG | 9970 a.u.
GAAGAGTTCTCGGGACACGGGAAAGACAATGGATAGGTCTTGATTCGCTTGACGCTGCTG | 590 a.u.
CTATAGAGTATAAATTGGGTGATGCTACACTAATTCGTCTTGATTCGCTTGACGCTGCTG | 521 a.u.
CTATCGTTGCGTTCAGGCCTGACGGGCGATTCCTTCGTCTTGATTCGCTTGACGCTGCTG | 484 a.u.
CTAATACAGGAGTGCCACATGCGAAAGCGGAGTTTCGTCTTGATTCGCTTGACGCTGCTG | 527 a.u.
GAACGGTCCTGCTCTCACGTTCTTCCTTATTGGTAGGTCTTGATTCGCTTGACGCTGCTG | 695 a.u.
CTAGCAAGAACCCTTCACATGTCACACCTGCACTTCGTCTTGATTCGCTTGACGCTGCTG | 776 a.u.
GAACCTTTTCTCAGTCTCCTGTTCGCTTGTCTGTAGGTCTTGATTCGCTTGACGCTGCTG | 574 a.u.
GAAGTTCATTACAAAAACGTGGTTCTATGGTTCTAGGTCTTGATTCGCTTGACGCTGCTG | 588 a.u.
CTATCGGACACTTTTCCCGTCACGTGGAAACGGTTCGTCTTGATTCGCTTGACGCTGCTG | 12500 a.u.
GAACCCACCTGCGGTGGTGTGGCACACGCATTCTAGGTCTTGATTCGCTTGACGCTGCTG | 519 a.u.
CTAGGTTTTTTACAGCTGATGATTGATGCATGATTCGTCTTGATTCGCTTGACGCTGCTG | 544 a.u.
GAAGCTAGAAGCCATCACGAATATTTTTGTAAATAGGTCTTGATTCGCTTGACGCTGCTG | 516 a.u.
GAATAGATCGAGGCCAAGGTGGTGGTTTATAAATAGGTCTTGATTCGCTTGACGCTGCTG | 498 a.u.
CTACGCTCATAATATCATGTGATTCTCTCGATGTTCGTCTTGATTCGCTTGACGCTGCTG | 3230 a.u.
GAACTGGATGCTTTTCACGTAACCTGAAACAAGTAGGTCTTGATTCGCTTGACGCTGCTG | 590 a.u.
GAAAGTTTGCGATGTTCTGATGCTTCAGGATTTTAGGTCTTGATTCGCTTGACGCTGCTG | 489 a.u.

For quick reference, copied from above (series 1):
Variant | normalised enrichment score
K10G | -0.038
L8R | 0.314
V6A | 0.515
K3S | 0.0394
K3N | -0.102
D11F | 0.227
L8T | 0.363
D11W | -0.0308
